{"data": "Results from different studies", "note": "A part holds a random share of what one study measured.", "chain of UniProt Q6P2M8 (whole entry, looked up)": "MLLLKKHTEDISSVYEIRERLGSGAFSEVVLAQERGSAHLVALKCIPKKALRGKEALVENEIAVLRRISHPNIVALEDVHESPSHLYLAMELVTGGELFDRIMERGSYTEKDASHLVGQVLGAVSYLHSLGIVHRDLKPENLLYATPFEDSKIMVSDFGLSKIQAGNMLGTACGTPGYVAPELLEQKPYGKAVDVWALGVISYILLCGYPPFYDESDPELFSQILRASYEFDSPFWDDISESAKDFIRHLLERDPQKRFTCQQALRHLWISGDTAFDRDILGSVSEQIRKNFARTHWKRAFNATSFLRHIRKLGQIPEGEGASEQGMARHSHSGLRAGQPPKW", "chain of UniProt Q96RR4 (whole entry, looked up)": "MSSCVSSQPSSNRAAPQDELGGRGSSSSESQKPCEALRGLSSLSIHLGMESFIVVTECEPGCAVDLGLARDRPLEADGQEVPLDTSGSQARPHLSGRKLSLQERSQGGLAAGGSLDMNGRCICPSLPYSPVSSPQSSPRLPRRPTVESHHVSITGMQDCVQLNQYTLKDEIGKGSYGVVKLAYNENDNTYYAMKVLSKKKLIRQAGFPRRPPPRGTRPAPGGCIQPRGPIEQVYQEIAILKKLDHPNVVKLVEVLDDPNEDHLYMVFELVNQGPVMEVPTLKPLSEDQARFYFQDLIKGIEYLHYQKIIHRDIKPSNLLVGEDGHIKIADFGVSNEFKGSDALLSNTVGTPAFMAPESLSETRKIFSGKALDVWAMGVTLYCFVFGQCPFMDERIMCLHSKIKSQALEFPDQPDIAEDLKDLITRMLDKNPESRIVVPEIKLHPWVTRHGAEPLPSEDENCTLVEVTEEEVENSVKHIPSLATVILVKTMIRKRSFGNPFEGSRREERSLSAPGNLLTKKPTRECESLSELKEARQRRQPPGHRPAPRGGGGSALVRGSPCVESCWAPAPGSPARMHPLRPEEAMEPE", "chain of UniProt P30291 (whole entry, looked up)": "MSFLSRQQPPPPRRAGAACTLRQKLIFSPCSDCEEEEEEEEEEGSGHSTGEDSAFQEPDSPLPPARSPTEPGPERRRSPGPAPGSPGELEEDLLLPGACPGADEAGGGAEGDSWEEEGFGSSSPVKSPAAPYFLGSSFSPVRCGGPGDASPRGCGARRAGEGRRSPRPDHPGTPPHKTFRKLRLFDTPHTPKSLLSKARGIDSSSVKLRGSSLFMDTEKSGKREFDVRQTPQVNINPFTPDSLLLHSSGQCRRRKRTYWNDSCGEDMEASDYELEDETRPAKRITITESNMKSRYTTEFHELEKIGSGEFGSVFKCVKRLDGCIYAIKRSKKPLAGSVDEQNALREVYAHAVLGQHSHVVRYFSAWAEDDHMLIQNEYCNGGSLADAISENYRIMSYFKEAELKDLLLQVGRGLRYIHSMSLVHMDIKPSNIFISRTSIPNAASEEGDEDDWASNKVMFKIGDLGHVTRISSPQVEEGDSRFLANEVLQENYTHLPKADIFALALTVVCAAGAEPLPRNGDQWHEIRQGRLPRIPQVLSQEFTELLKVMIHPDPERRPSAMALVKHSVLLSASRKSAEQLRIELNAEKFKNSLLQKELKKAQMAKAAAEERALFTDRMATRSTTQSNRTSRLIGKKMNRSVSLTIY", "chain of UniProt O75582 (whole entry, looked up)": "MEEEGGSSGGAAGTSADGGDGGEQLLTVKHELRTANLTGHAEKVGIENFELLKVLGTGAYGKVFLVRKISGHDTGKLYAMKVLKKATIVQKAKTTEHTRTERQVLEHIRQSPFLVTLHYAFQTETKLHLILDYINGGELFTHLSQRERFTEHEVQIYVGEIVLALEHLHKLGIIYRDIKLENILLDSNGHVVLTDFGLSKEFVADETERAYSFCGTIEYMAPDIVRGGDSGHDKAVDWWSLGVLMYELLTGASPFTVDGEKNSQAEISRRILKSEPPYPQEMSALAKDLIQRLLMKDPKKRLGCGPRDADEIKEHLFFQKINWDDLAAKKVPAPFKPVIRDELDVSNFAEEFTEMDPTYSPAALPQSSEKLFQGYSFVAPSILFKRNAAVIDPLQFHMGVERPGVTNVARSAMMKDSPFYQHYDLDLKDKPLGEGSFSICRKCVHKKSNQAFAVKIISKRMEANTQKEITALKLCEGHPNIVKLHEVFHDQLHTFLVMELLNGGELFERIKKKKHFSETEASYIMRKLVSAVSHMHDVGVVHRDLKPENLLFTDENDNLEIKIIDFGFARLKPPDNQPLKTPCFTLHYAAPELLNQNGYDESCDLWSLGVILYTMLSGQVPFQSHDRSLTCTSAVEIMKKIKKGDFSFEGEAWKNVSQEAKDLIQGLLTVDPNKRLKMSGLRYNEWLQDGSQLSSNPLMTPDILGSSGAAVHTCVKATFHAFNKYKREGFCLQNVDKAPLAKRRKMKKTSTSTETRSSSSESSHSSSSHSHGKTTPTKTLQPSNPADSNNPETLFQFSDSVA", "chain of UniProt P41743 (whole entry, looked up)": "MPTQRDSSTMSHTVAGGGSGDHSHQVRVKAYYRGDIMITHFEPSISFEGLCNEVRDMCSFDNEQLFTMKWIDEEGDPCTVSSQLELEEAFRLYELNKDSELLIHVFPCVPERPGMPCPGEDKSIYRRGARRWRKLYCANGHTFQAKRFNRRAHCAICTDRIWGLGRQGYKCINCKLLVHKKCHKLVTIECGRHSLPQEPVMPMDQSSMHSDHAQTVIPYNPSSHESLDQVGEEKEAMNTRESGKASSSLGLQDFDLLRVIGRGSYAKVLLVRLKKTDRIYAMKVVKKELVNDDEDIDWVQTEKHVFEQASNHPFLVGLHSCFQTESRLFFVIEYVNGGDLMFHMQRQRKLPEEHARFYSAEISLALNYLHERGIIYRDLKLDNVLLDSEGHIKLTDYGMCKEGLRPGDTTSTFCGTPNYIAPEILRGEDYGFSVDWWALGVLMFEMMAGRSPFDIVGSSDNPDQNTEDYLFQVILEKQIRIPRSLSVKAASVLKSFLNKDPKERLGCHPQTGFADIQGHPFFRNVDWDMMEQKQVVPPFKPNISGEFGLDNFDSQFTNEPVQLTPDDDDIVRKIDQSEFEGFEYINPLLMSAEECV", "chain of UniProt Q9H422 (whole entry, looked up)": "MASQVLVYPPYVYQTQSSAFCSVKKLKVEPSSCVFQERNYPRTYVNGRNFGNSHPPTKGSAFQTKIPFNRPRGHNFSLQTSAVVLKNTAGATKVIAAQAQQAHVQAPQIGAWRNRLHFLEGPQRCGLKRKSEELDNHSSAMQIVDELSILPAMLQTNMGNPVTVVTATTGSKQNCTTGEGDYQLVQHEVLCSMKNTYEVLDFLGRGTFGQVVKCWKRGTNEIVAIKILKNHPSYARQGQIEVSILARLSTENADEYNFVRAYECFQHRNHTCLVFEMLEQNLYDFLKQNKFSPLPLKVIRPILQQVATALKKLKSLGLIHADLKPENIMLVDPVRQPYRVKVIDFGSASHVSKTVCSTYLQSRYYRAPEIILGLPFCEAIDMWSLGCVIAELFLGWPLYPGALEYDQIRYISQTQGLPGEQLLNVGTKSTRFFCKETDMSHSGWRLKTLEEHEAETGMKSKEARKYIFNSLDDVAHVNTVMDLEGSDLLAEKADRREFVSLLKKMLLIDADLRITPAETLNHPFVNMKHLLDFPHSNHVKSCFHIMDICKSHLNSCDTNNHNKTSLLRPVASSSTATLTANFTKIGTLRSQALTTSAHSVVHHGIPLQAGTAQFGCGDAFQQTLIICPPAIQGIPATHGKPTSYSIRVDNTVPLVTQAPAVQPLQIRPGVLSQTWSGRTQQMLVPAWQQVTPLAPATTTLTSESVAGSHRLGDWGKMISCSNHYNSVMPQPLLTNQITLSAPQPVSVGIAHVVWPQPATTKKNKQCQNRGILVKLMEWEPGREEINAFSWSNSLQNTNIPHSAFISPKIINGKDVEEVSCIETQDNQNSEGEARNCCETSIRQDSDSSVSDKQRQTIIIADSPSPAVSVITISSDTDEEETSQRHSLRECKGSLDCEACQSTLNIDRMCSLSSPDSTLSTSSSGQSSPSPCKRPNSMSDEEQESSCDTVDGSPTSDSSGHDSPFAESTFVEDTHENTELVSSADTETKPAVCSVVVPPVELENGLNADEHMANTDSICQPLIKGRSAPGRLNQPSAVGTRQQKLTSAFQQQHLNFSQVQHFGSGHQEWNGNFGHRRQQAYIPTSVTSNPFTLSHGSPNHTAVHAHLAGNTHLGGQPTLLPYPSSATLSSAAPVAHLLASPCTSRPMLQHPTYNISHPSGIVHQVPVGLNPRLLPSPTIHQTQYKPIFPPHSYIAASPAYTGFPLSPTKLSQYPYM"}
{"data": "Sample 1", "species": "mouse", "sample": "microsomes or S9", "tested at": "2 µM", "time": "0.5 h"}
{"SMILES": "O=S1(=O)N=C(Nc2nccs2)c2ccccc21", "remaining compound [%]": 75.2}
{"SMILES": "Cn1c(N)c(C(=O)Cn2cc(C(F)(F)F)cc(Cl)c2=O)c(=O)n(C)c1=O", "remaining compound [%]": 79.8}
{"SMILES": "COCCn1c(CCNC(=O)C2CCCN(c3ncccn3)C2)nc2ccccc21 (stereo not drawn)", "remaining compound [%]": 0.383}
{"SMILES": "CCN(CC)CCCC(C)NCc1c(C)nn(-c2ccc(F)cc2)c1C (stereo not drawn)", "remaining compound [%]": 62.5}
{"SMILES": "CC(C)(C)OC(=O)N1CCC2(CC1)NN=C1C=C(N3CCN(c4ccccc4F)CC3)N=CN12", "remaining compound [%]": 78.2}
{"SMILES": "COc1ccc(OCCNC(=O)c2cc(S(=O)(=O)N(C)C)c(Cl)cc2Cl)cc1", "remaining compound [%]": 1.46}
{"SMILES": "O=C(Cn1ccc2c(=O)[nH]ccc21)Nc1ccccc1Br", "remaining compound [%]": 92.4}
{"data": "Sample 2", "Compound": "Cn1cc(Cl)c2c(Oc3c(F)cc(Nc4cc(Cl)nc(N)n4)cc3F)ccnc21", "effect on": "cell-free assay", "method": "competition with immobilised ligand", "tested at": "0.1 µM"}
{"target": "CAMKK2 (Homo sapiens, UniProt Q96RR4)", "remaining binding [%]": 99}
{"target": "PNCK (Homo sapiens, UniProt Q6P2M8)", "remaining binding [%]": 90}
{"target": "Ribosomal protein S6 kinase alpha-5, C-terminal kinase domain (RPS6KA5, Homo sapiens, UniProt O75582)", "remaining binding [%]": 100}
{"target": "PRKCI (Homo sapiens, UniProt P41743)", "remaining binding [%]": 100}
{"target": "WEE1 (Homo sapiens, UniProt P30291)", "remaining binding [%]": 91}
{"target": "EPHA8 (Homo sapiens, UniProt P29322)", "remaining binding [%]": 100}
{"target": "HIPK3 (Homo sapiens, UniProt Q9H422)", "remaining binding [%]": 80}
{"target": "MAP2K7 (Homo sapiens, UniProt O14733)", "remaining binding [%]": 84}
{"data": "Sample 3", "cell line": "HaCaT", "tested at": "100 µM", "time": "36 h"}
{"SMILES": "COc1cc2c(cc1O)[C@@H](Cc1ccc(O)c(Oc3ccc(C[C@@H]4c5cc(OC)c(OC)cc5CCN4C)cc3)c1)N(C)CC2", "viability [%]": 9.91}
{"SMILES": "O=C(O)[C@H]1O[C@H](O)[C@H](O)[C@@H](O)[C@@H]1O", "viability [%]": 55.3}
{"SMILES": "CC(=O)Nc1ccc(OC(=O)c2ccccc2OC(C)=O)cc1", "viability [%]": 85.9}
{"SMILES": "CC(=O)c1ccc2c(c1)N(CCCN1CCC(CCO)CC1)c1ccccc1S2", "viability [%]": 6.34}
{"data": "Sample 4", "target": "Receptor-interacting serine/threonine-protein kinase 2 (RIPK2, Homo sapiens, UniProt O43353)", "effect on": "enzyme activity", "action": "inhibitor", "tested at": "0.5 µM", "baseline": "control", "chain of UniProt O43353 (whole entry, looked up)": "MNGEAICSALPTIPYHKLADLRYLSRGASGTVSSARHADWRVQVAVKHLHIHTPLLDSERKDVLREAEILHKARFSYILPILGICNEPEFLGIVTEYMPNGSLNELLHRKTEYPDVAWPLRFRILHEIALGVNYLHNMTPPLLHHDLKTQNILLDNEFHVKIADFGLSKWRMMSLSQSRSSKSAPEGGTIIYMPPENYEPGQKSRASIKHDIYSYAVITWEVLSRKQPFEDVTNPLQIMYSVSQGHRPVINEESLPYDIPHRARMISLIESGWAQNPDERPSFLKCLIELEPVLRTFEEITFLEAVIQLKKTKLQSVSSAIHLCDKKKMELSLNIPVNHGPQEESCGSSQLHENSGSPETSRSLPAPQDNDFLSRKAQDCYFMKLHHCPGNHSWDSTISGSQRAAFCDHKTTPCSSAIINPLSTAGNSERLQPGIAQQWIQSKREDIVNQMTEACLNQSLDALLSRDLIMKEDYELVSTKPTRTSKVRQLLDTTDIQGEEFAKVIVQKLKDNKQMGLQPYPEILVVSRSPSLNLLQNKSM"}
{"SMILES": "CN(C)c1ccc(C=C2C(=O)Nc3ccccc32)cc1", "remaining activity [%]": 87.8}
{"SMILES": "Nc1[nH]nc2nc3ccccc3nc12", "remaining activity [%]": 81.1}
{"SMILES": "CC(C)[C@H](CO)Nc1nc(Nc2cc(N)cc(Cl)c2)c2ncn(C(C)C)c2n1", "remaining activity [%]": 87.7}
{"SMILES": "COc1ccc(OC)c2c(=S)c3ccccc3[nH]c12", "remaining activity [%]": 108}
{"SMILES": "CO[C@H]1C[C@@H]2CC[C@@H](C)[C@@](O)(O2)C(=O)C(=O)N2CCCC[C@H]2C(=O)O[C@H]([C@H](C)C[C@@H]2CC[C@@H](O)[C@H](OC)C2)CC(=O)[C@H](C)/C=C(\\C)[C@@H](O)[C@@H](OC)C(=O)[C@H](C)C[C@H](C)/C=C/C=C/C=C/1C", "remaining activity [%]": 90.5}
{"SMILES": "COc1cc2nccc(Oc3ccc(NC(=S)NC(=O)c4ccccc4C)cc3)c2cc1OC", "remaining activity [%]": 89.2}
{"SMILES": "CCOC(=O)c1c(C)[nH]c(/C=C2\\C(=O)Nc3ccccc32)c1C", "remaining activity [%]": 88.3}
{"SMILES": "O=S(=O)(c1cccc2cnccc12)N1CCCNCC1", "remaining activity [%]": 86.4}
{"SMILES": "N#CC(C#N)=C(N)/C(C#N)=C/c1ccc(O)cc1", "remaining activity [%]": 95.5}
{"SMILES": "O=C(Nc1cccc(Nc2cc(Nc3cccc(C(F)(F)F)c3)ncn2)c1)C1CC1", "remaining activity [%]": 80.8}
{"SMILES": "Nc1ccc2ncnc(NCCc3ccc(Oc4ccccc4)cc3)c2c1", "remaining activity [%]": 94.6}
{"SMILES": "O=C(O)c1ccc2c3c1cccc3c(=O)n1c3ccccc3nc21", "remaining activity [%]": 78.4}
{"SMILES": "NCCNc1ncc(C(N)=O)c(Nc2cccc(C(F)(F)F)c2)n1", "remaining activity [%]": 93.2}
{"SMILES": "Cn1c2ccccc2c2c3c(c4c5ccccc5n(CCC#N)c4c21)CNC3=O", "remaining activity [%]": 55.1}
